Results pooled from the literature.
Compare with care: the assays were run in different laboratories. ± gives the spread as reported.
APP Aβ40 fibrils: Amyloid-beta precursor protein, Aβ40 fibrils (APP, Homo sapiens, UniProt P05067)
APP: Amyloid-beta precursor protein (APP, Homo sapiens, UniProt P05067)

SMILES	target	assay	system	setting	how to read	measurement	result
O=C(O)c1cc(Cl)cc(NC(=O)C(F)(F)F)c1	Amyloid-beta precursor protein, amyloid-beta 1-40 oligomers (APP, Homo sapiens, UniProt P05067)	binding	–	–	–	Kd	4 µM
C[C@@H]1NC(=O)C[C@H](NC(=O)CCNC(=S)Nc2ccc3c(c2)C(=O)OC32c3ccc(O)cc3Oc3cc(O)ccc32)C(=O)NC[C@@H](C(=O)N[C@@H](CC(=O)O)C(=O)N[C@@H](C)C(=O)N[C@@H](CCCNC(=N)N)C(=O)N[C@@H](C)C(=O)N[C@@H](CCC(=O)O)C(=O)N[C@@H](CCCNC(=N)N)C(=O)N[C@@H](C)C(=O)N[C@@H](CCC(=O)O)C(N)=O)NC(=O)[C@H](CCCNC(=N)N)NC1=O	APP Aβ40 fibrils	binding to Aβ40 fibrils, fluorescence polarization	–	24 h, pH 7.4, 25 °C, with: 100 µM Aβ40 fibrils	–	Kd	~12.9 µM
COc1c2c(cc3oc(-c4ccccc4)cc(=O)c13)OC(C)(C)C=C2	APP	amyloid aggregation, inhibitor, fluorescence	–	–	–	IC50	> 200 µM
CC(=O)N[C@H]1CC(=O)N[C@@H](Cc2ccccc2)C(=O)N[C@@H](CCCNC(=N)N)C(=O)N[C@H](C(=O)N[C@@H](CC(=O)O)C(=O)N[C@H](C(=O)N[C@@H](CCCNC(=N)N)C(=O)N[C@@H](C)C(=O)N[C@@H](CCCNC(=N)N)C(=O)N[C@@H](CCC(=O)O)C(=O)N[C@@H](C)C(=O)N[C@@H](CCC(=O)O)C(N)=O)C(C)C)CNC1=O	APP Aβ40 fibrils	isothermal titration calorimetry	sodium phosphate buffer	pH 8, 25 °C, peptide titrated into protein	–	Kd	18.9 µM
Ic1ccccc1/N=N/c1ccc2nc(-c3ccccc3)cc(-c3ccccc3)c2c1	APP Aβ40 fibrils	thioflavin T competition	–	with: preformed fibrils 5 µM, thioflavin T 2 µM	binding	Ki	0.177 ± 0.015 µM
CC(C)C[C@H](NC(=O)[C@@H](N)Cc1ccccc1)C(=O)O	Amyloid-beta precursor protein, amyloid-beta 1-40 E22A (APP, Homo sapiens, UniProt P05067, E693A)	–	–	concentration not given	–	Kd	112 ± 53 µM
CCOC(=O)/C=C/c1c(-c2ccc(C)cc2)nc2ccc(/N=N/c3ccc([N+](=O)[O-])cc3)cc2c1-c1ccccc1	APP Aβ40 fibrils	thioflavin T competition	–	with: preformed fibrils 5 µM, thioflavin T 2 µM	binding	Ki	0.168 ± 0.017 µM
COc1cc2c(c3oc(-c4ccccc4)cc(=O)c13)C=CC(C)(C)O2	APP	amyloid aggregation, inhibitor, fluorescence	–	–	–	IC50	109 µM
CC(=O)N[C@H]1CC(=O)N[C@@H](Cc2ccccc2)C(=O)N[C@@H](CC(=O)O)C(=O)N[C@H](C(=O)N[C@@H](CCCNC(=N)N)C(=O)N[C@H](C(=O)N[C@@H](CCCNC(=N)N)C(=O)N[C@@H](C)C(=O)N[C@@H](CCC(=O)O)C(=O)N[C@@H](CCCNC(=N)N)C(=O)N[C@@H](C)C(=O)N[C@@H](CCC(=O)O)C(N)=O)C(C)C)CNC1=O	APP Aβ40 fibrils	binding to Aβ40 fibrils, fluorescence polarization	–	24 h, pH 7.4, 25 °C, with: 100 µM Aβ40 fibrils	–	Kd	24.6 µM
CC(C)(O)c1cc2c(ccc3c(=O)cc(-c4ccccc4)oc32)o1	APP	amyloid aggregation, inhibitor, fluorescence	–	–	–	IC50	> 200 µM
CC(=O)N[C@H]1CC(=O)N[C@@H](Cc2ccccc2)C(=O)N[C@@H](CCCNC(=N)N)C(=O)N[C@H](C(=O)N[C@@H](CC(=O)O)C(=O)N[C@H](C(=O)N[C@@H](CCCNC(=N)N)C(=O)N[C@@H](C)C(=O)N[C@@H](CCC(=O)O)C(=O)N[C@@H](CCCNC(=N)N)C(=O)N[C@@H](C)C(=O)N[C@@H](CCC(=O)O)C(N)=O)C(C)C)CNC1=O	Amyloid-beta precursor protein, Aβ40 oligomers (APP, Homo sapiens, UniProt P05067)	binding to amyloid-beta 40 oligomers, fluorescence polarization	–	pH 7.4, with: 20 nM FITC-labelled peptide	–	Kd	16.5 µM
COc1cc(-c2nc3ccccc3s2)cc(CN2CCN(CC(=O)O)CCN(CC(=O)O)CC2)c1O	Amyloid-beta precursor protein, fibril (APP, Homo sapiens, UniProt P05067)	binding, fluorescence	–	–	–	Kd	0.121 µM
COc1ccc2c(=O)c(OC)c(-c3ccc(OC)c(OC)c3)oc2c1	APP	amyloid aggregation, inhibitor, fluorescence	–	–	–	IC50	155 µM

Repeated from above:
SMILES	target	assay	system	setting	how to read	measurement	result
C[C@@H]1NC(=O)C[C@H](NC(=O)CCNC(=S)Nc2ccc3c(c2)C(=O)OC32c3ccc(O)cc3Oc3cc(O)ccc32)C(=O)NC[C@@H](C(=O)N[C@@H](CC(=O)O)C(=O)N[C@@H](C)C(=O)N[C@@H](CCCNC(=N)N)C(=O)N[C@@H](C)C(=O)N[C@@H](CCC(=O)O)C(=O)N[C@@H](CCCNC(=N)N)C(=O)N[C@@H](C)C(=O)N[C@@H](CCC(=O)O)C(N)=O)NC(=O)[C@H](CCCNC(=N)N)NC1=O	APP Aβ40 fibrils	binding to Aβ40 fibrils, fluorescence polarization	–	24 h, pH 7.4, 25 °C, with: 100 µM Aβ40 fibrils	–	Kd	~12.9 µM
